Measurements of several laboratories.
Parts stem from different laboratories: compare values within a part only.

Sample 1
Target: RING finger protein unkempt homolog, zinc fingers 1-6, GST-SBP tag (UNK, Homo sapiens, UniProt Q9C0B0, residues 30-357)
Chain of UniProt Q9C0B0 (30-357, looked up): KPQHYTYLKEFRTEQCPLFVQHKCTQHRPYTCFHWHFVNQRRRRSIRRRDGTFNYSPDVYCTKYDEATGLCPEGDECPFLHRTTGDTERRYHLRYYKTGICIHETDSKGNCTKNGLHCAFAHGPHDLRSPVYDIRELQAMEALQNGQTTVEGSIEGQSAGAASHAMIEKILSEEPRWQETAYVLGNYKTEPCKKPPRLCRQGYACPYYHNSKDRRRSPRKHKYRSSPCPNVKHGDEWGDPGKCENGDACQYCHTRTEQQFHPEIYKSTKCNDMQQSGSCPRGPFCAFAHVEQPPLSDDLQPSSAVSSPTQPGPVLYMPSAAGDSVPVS
Technique: RNA Bind-n-Seq
Molecule type: RNA
Medium: in vitro
Tested at: not given
Setting: RNA with constant flanks, human-mouse chimeric sites, ends assumed
Baseline: input RNA pool
Direction: higher = stronger binding
Measurement: bound/input enrichment
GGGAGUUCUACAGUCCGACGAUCGUGCCCUUCUCGCUGCUCCUGCGGGGCAGCUGGGAACCAUUCCGGGACUGGUACCCUGCACACAGCCGCCUCUUCGAUCAAGCUUUCGGGCUGCCCCGGUUGCCCGAUGAGUGGUCGCAGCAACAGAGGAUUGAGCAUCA: 0.0448 ratio
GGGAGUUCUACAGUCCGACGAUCGGGGAGAAACCUUAUGAGUGUGUGCAGUGUGGGAAAUCCUACAGUCAGAGCUCAAACCUCUUCAGACAUCAGAGACGACACAAUGCAGAAAAACUUUUGAAUGUUGUGAAAGUUUAAGAACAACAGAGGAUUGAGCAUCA: 0.207 ratio
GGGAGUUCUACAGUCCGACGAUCCUGUUUUGACAGCCACACAAUCUUGGCAUGUAUUAAGGAAAAAAAAAAUCCCUGUUGAAGUAGUUUUUCCACCUAUCAGCACUGAGUAAAUGCCAUAAAUCCAUUGAAAUGGUCUAAAUACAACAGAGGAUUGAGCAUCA: 0.286 ratio
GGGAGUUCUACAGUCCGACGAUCCAGCCUCAGAGCCCUGACUUCCUGGAUAUUACCAACCCUAAAGCGGUAUUAGAAAAUGCAUUGAGAAACUUCGCCUGUCUGACGACUGGGGAUGUGAUUGCUAUCAACUACAAUGAGAAGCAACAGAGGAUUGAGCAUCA: 0.621 ratio
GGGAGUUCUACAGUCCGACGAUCAUGGAACAUUUUGAUGCGUCACUCAGUACCUAUUUCAAGGCAUUGCUGGGCCCCCGAGAUACAAGAGUCAAAGGAUGGUUCCUCCUGGACAAUUACAUCCCUACGUUUGUCUGUUCUGUUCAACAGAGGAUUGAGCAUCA: 0.131 ratio
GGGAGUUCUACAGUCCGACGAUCUCUGGUCACACUCGUGUAUAUGGUGUGUGCUUUGUGGACACUUCACUGGGCAAGUUUUUCAUCGGCCAGUUUUCGGAUGACCGCCACUGUUCGAGAUUUAGGACGCUAGUGGCUCACUAUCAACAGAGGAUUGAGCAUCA: 0.256 ratio
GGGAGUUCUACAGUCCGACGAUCAAAGAGAAACUAAAGCAACUAAUAGAGAAGAGGAUUGGCAAAGAGAAUUUCAUAGAGAAACUAGGAUUUUAUUAGCAACAUGAGUUAUAUUCCAGAGCGUCUCAGAAACCCCAGCCAAACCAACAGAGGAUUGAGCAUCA: 9.79 ratio
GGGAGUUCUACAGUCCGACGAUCGUGCCCUUCUCGCUGCUGCGGAGCCCGAGCUGGGAACCAUUCCGGGACUGGUACCCUGCACACAGCCGCCUCUUCGAUCAAGCUUUCGGGGUGCCCCGGCUGCCGGAUGAGUGGUCGCAGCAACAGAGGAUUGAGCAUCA: 0.0537 ratio

Sample 2
Target: Histone acetyltransferase KAT6A, both winged helices, GST fusion (KAT6A, Homo sapiens, UniProt Q92794, residues 1-181)
Technique: protein binding microarray
Molecule type: double-stranded DNA, one strand shown
Medium: in vitro
Tested at: not given
Setting: 8-mer, flanks averaged, mean of 2 arrays, mostly near background
Baseline: not given
Direction: higher = stronger binding
Measurement: E-score
Construct (chain): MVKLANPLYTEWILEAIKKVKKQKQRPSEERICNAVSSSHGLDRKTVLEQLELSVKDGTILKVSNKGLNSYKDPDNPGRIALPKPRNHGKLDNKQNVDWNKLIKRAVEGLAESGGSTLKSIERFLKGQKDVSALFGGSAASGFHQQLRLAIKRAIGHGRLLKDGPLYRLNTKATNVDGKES
AAGTGTTA: -0.146
ATGCTCCA: -0.108
AGCGGGAC: 0.24
CACGCAAC: 0.114
AGCCCGAA: -0.0608
GGGCTCCA: -0.139
GCATTGCC: 0.0351
CAATTGAA: -0.0521
AGCATGAG: -0.127
ACAACTTA: -0.109
CACATCTG: -0.123
AATGATGT: -0.00571
AATCTCAT: -0.156
AGTTTCAG: 0.0323
AACCGTAG: 0.0565
ACGACTGA: -0.196
AGCGACGC: 0.296
ACGATTTC: -0.0254
CCGTAGCG: 0.303
CCCGTGGC: 0.241
TACAGGCA: -0.143
ACTTGACC: -0.153
GCACCTGC: 0.00546

Sample 3
Target: Prothrombin, mature alpha-thrombin (F2, Homo sapiens, UniProt P00734)
Technique: aptamer microarray, sandwich
Molecule type: DNA with 2'F-ANA
Medium: in vitro
Tested at: 200 nM
Setting: whole 15-mer aptamer, many near background
With: Cy3 exosite-II aptamer, 400 nM
Direction: higher = stronger binding
Measurement: mean fluorescence intensity
Strand: GGTTGGTGTGGTTGG
2'F-ANA at 1 4 6 8 9 12: 309 a.u.
2'F-ANA at 2 3 4 6 7 9 10 11 15: 193 a.u.
2'F-ANA at 1 5 7 8 11 12 13: 77.4 a.u.
2'F-ANA at 2 3 7 8 12: 1360 a.u.
2'F-ANA at 2 4 5 7 8 12 13 14: 46.7 a.u.
2'F-ANA at 1 2 3 4 6 8 9 10 11 15: 56.5 a.u.
2'F-ANA at 2 3 6 7 11 12 15: 834 a.u.
2'F-ANA at 1 2 3 4 5 6 7 10 11 12: 53.2 a.u.
2'F-ANA at 1 5 6 7 8 9 12: 115 a.u.
2'F-ANA at 2 3 4 6 9 11 12 14 15: 228 a.u.
2'F-ANA at 2 4 9 14 15: 88.1 a.u.
2'F-ANA at 9 10 14: 118 a.u.
2'F-ANA at 1 2 3 4 8 10 12 14 15: 63.3 a.u.

Sample 4
Target: Fragile X messenger ribonucleoprotein 1, C-terminal low-complexity region (Fmr1, Mus musculus, UniProt P35922)
Technique: RNA Bind-n-Seq
Molecule type: RNA
Medium: in vitro
Tested at: 200 nM
Setting: whole 134-nt RNA, ends assumed
With: 150 mM LiCl
Baseline: input library
Direction: higher = stronger binding
Measurement: log2 enrichment
Library: 7-deaza-guanosine replaces G
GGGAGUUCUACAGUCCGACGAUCUCCUGUGCUACACAUCGUAUGUACCGAAUCGGGUUUUUUGGUUUUUUGGGGUUUUUUGGGAAAGUAUUAUGUUACGCCGUUCGGAUCUGCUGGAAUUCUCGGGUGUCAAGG: -0.63
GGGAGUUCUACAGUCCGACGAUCAAGUCCUGUGCUACACAUCGUAUGUACCGAAUCGGGAAAGGGAAAAAAAGGGAGGGAAAGUAUUAUGUUACGCCGUUCGGAUCUGCACUUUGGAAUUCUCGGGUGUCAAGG: 0.0874
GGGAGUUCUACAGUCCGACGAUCUAGCCAAGAGUCGAAGCUAAACCAGAAGUUCAAUCUCAGCCACCUCGUGUGCGUGAACAACGACCUAGAGAACGACCUGGUUUUCCUCCUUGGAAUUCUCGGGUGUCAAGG: 0.157
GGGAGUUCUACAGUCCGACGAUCACCAUGCAGGUGGGCAUCUUUGGGAAGUGGGGCAAGGGGGGGAUAGGGAGGAGGGUAACACUUUGGGAACAGGUGGUCCCAGGUCGUUUCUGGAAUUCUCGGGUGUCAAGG: 0.958
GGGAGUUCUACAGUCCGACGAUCAAGUCCUGUGCUACACAUCGUAUGUACCGAAUCGGGUGGGAAAAAAAGGGUUUGGGAAAGUAUUAUGUUACGCCGUUCGGAUCUGCACUUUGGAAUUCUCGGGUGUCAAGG: -2.51
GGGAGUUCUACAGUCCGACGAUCUGGCCCUGGAGGCAUGCGGGGAGGAAGAGGUGGCCUCAUGGAUCGUGGUGGUCCCGGUGGAAUGUUCAGAGGUGGCCGUGGUGGAGACAGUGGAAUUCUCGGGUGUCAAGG: -0.377
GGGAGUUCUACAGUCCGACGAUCGCAGGAAGUAAAAACAAAUGGAAAUGAAACGGAUAGUGGCAGGGGUGGGGGUUGCUAAGGAAAGGGUGGGAUGGGAGUGGGUAAAGAGUUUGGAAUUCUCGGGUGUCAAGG: 1.7
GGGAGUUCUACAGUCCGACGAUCGUCCUGUGCUACACAUCGUAUGUACCGAAUCGGGGAAAAAAAGGGGUUUGGGGUGGGGAAAGUAUUAUGUUACGCCGUUCGGAUCUGCACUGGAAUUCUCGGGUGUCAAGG: -1.01
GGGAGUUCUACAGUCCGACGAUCGCAGGAAGUAAAAACAAAUGGAAAUGCUUCGGAUAGUGGCAGGGGUGGGGGUUGCUAAGGAAAGGGUGGGUUGGGAGUGGGUAAAGAGUUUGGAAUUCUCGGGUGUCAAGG: 1.49
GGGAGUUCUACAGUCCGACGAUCCCUGUGCUACACAUCGUAUGUACCGAAUCGGGGCCCCCCGGGGCCCCCCGGGCCCCCCGGGAAAGUAUUAUGUUACGCCGUUCGGAUCUGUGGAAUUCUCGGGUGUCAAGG: -2.58
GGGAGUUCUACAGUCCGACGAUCUAACUUUAGAGGAGGAUCUGAUGGAUACGGCAGUGGACGUGGAUUUGGGGAUGGCUAUAAUGGGUAUGGAGGAGGACCUGGAGGUGGCAAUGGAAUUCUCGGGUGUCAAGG: 0.0561

Sample 5
Target: RNA binding protein fox-1 homolog 2, RRM domain, GST-SBP tag (RBFOX2, Homo sapiens, UniProt O43251-10, residues 100-194)
Technique: RNA Bind-n-Seq
Molecule type: RNA
Medium: in vitro
Tested at: 365 nM
Setting: natural RNA segment, single round, ends assumed
Baseline: no-protein control
Direction: higher = stronger binding
Measurement: RBNS enrichment (R)
Residues (chain): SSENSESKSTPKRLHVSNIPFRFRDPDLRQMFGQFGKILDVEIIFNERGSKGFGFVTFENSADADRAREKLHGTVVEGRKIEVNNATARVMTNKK
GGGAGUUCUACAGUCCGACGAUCUAAUGAUGAAUAUAAAAAUACCUGUCAUCCCCAGAUCAUUUAAAAGUUAACUAAAGUGAGAAUGAAAAAACAAAAUUCCAAGACACUUUUUAAAAGAAUGUCUGCCCUCAUGGAAUUCUCGGGUGCCAA: 0.433
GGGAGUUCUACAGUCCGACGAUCACACGAACAGCCUGAGAAGUCACUUUGGAACUAAAUUGCCUCGAUUUAUUUUGUGUAAGUAAGGGUUUGACCUAAAAAGAGCUCACGUGCACAUUAGCAAGUGUCCUCAUUGGAAUUCUCGGGUGCCAA: 0.296
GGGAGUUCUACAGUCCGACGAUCAUUGGUUAGAAAAAAAUAGAUUGUCUAUUGAAAGAAAUUCUCUCUCUGCAGUAGAUUAUAUUUAUCCUAAUCUAUUGAUAUUCUGUUGAUUUGUUUUAAGAGAUAGAACUUGGAAUUCUCGGGUGCCAA: 0.446
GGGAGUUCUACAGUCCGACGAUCAGCUGUGGGCAGUGGAGGCAGAUAGCACUUCUGAGGGAGACUCAUUAAAGCAUUGGCUUUGCUACCAGCUGUCUUCUGUAUUGUGGUUCAGUUUACCUUCAGUGGAAAUCUGGAAUUCUCGGGUGCCAA: 0.774
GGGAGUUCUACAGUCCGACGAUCACUGAUCUUUGAUCCUCCUGUGAAGAUGGACUUGCCUGGCCUUAGUCAUGUGGAAAUGGUGUACCCGGCUGAGAUUUUUACAGCAAUAAAGGGGACUCUCACUAGGCUAGUGGAAUUCUCGGGUGCCAA: 0.357
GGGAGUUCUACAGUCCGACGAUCACUUCUCUUUAUAGGUUUCAGGUCUCCUAUGGGUGCCUGGGAAGUCCUUGAAAGUGGACUGUUCUCAGGCUUGACCUGCCCCACCCCAUCCCCGCGGUUGAGGCUGUGGGUGGAAUUCUCGGGUGCCAA: 0.255
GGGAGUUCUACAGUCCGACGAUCGCUUGCAUGGGUCUGCCCGUGUCGACAGACCCUAGGCUCCCAGUCUCUCUCCUUCAUGUGCUAUUCUCCUUCCCCAGGCAGAUUGGCAGGGGAAGUGGGAGCAGAUGGCCUGGAAUUCUCGGGUGCCAA: 1.64
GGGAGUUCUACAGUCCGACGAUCAUUUCCCUCCUGGGAGAGAAGGAGAUCAGGGCAACUCGGAGAGGGCUGCGAGCAUUUCCCUCCCGGGAGAGGAGAUCAGGGCGACCUGCACGCACUGCGUAGAGCCUGGAUGGAAUUCUCGGGUGCCAA: 0.312
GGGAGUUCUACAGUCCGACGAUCCCCAUUGCCUAUUUGCACCCUAUGCAUGUGGUCAUAUGUAAGCUGGAUCAUCUCCACAGCUGUGACCAGAAAUCCUCACGAAGGGCACAUUUCUAGGUAGACCCAAAUGGUGGAAUUCUCGGGUGCCAA: 8.07
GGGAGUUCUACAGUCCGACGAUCAGGAGGAAGAGGGAAGUCAAGAGCAACCUCCAAGGCCUAUGUCAGCCUCUUCUCCUUGGGUCUUGGGGUGGGUUAGAACUGGGUUCCAGUCUGGCCAGAUGGGUUGCUGGUGGAAUUCUCGGGUGCCAA: 0.485
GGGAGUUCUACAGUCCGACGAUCGCUAUUCUGCCAAAAGACAUUUUCUAGAAUAGUUUUUAAUGGGUUACUGUCCUUACCCUUCAUCCAACAAACUCUGAAGCCAGUCUCUAGCUUACUGCAAGAAAAAGAAGUGGAAUUCUCGGGUGCCAA: 0.291
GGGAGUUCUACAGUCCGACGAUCCGGUAAGGCUUAUUCAUGGUUCAUUGCCAGGAGCAGAUAUGCUUUUGAGAUCACUUUUAUUUUUGAAAUGGCCUUUGUUCAUUGUAUUGUGAUCCAAUAACACUUUGUAUUGGAAUUCUCGGGUGCCAA: 0.654
